Published values gathered from unrelated publications.
Compare with care: the assays were run in different laboratories. Values joined by “and” are separate records of one study, mostly repeats; a detail may differ.
Target: Glycogen synthase kinase-3 beta (GSK3B, Homo sapiens, UniProt P49841)

With `NC(=O)C[C@H]1CCc2sc3ncnc(O[C@H]4CC[C@H](N5CCOCC5)CC4)c3c21` the inhibition was 4% (enzyme activity, inhibitor; 10 µM).
`Cc1cccc(-c2ccc3nc(NC(=O)C4CCCO4)nn3c2)c1` (stereo not shown) gave a remaining activity of 70% (enzyme activity, Dundee kinase panel; 10 µM).
`Cc1cnc2nc1Nc1cccc(c1)COC/C=C/COCc1cc(ccc1OCCN1CCOCC1)N2` has a remaining binding of 92% (binding; 0.1 µM).
For `N[C@H]1CC[C@H](Nc2nccc(-c3cccnc3Oc3ccc(NC(=O)NC4CC4)c4ccccc34)n2)CC1`, “log2 LFQ intensity” read 28.9 and 29 and 29.3 (kinobead competition pulldown; HEK293/HCT116 lysate mixture; 10 µM, 1 h, 4 °C; lower = stronger competition).
The remaining activity of `Cc1cccc(-c2ccc3nc(NC(=O)C4CCOCC4)nn3c2)c1` is reported as 73% (enzyme activity, Dundee kinase panel; 10 µM).
For `Cc1ccc(-c2c(/C=C(\C#N)C(=O)NC(C)C)n(CCCO)c3ncnc(N)c23)cc1`, the remaining binding was 100% (cell-free assay, competition with immobilised ligand; 1 µM).
With `CNC1C[S+]2CC[S+]3CC[S+](C1)[Ru-4]321([N]=C=S)[n]2c3ccc(OC)cc3c3c4c(c5cc(F)c[n+]1c5c32)C(=O)NC4=O` (stereo not shown) the remaining binding was 99% (KinomeScan; 0.1 µM; relative to: untreated).
For `COc1c(OCCCN2CCOCC2)ccc2c1N=C(NC(=O)c1cnc(N)nc1)N1CCN=C21`, the remaining activity was 112% (kinase activity, inhibitor; 1 µM; relative to: untreated control).
For `CN1CC[C@@H](COc2cnc(C#N)cc2-c2ccn3nc(NC(=O)C4CC4)cc3c2)C1`, the inhibition was -11% (enzyme activity, inhibitor; 1 µM).
The remaining binding of `COc1ccc(NC(=O)Nc2ccc3c(c2)C(=O)N(C(C)CO)CC(C)C(CN(C)Cc2ccc4c(c2)OCO4)O3)cc1` (stereo not shown) is reported as 94% (binding, competition with immobilised ligand; 10 µM).
`c1ccc2c(Nc3cc(C4CCC4)[nH]n3)nc(Nc3ccc4nc[nH]c4c3)nc2c1` has a remaining activity of 16% (enzyme activity, inhibitor; 0.25 µM).
The remaining binding of `C=CC(=O)N1CCc2ccc(-n3c(=O)ccc4cnc5ccc(-c6cnn(C)c6)cc5c43)cc21` is reported as 100% (KINOMEscan; 1 µM; relative to: DMSO control).
The remaining binding of `CN1CCN(Cc2ccc(NC(=O)c3cccc(C#Cc4cnc(N)c5ncccc45)c3)cc2C(F)(F)F)CC1` is reported as 63% (cell-free assay, competition with immobilised ligand; 0.5 µM).
`C=CC(=O)N1CCCC(n2c(=O)c3ncccc3n(Cc3ccc(Oc4ccccc4)cc3)c2=O)C1` (stereo not shown) has a remaining binding of 73% (cell-free assay, competition with immobilised ligand; 1 µM).
`C=C1CCCCCCCCCC(CO)C1=O` (stereo not shown) has a remaining signal of 100% (cell-free assay; 10 µM).
The remaining binding of `COc1cc(Nc2nccc(-c3cnn4nc(OC)ccc34)n2)cc(C(F)(F)F)c1` is reported as 100% (binding; 1 µM).
The inhibition of `CCn1cc(C(=O)O)c(=O)c2c(N)c(F)c(NC3CCCCC3)cc21` is reported as 86% (kinase activity; 0.1 µM, added: ATP at Km).
For `O=C(O)CCC(=O)c1cccc(NS(=O)(=O)c2c[nH]c3ncccc23)c1`, the remaining activity was 99% (kinase activity, radiometric; 10 µM).
The inhibition of `COc1cc(-n2cc3cc(F)cc(C(N)=O)c3n2)cc(Cl)c1C1CC(O)(CCO)Cc2ccccc21` (stereo not shown) is reported as 5.35% (enzyme activity, inhibitor; 10 µM).
The inhibition of `C=CC(=O)Nc1cccc(-c2cnc3[nH]cc(C(=O)NC(C)(C)C)c3n2)c1` is reported as 64% and 59% (kinase activity; 0.1 µM).
`C=CC(=O)N1Cc2nc(-c3cc(-c4cc(Cl)cnc4Cl)c(F)cc3F)n(-c3ccncn3)c2C1` has an inhibition of -6.8% (cell-free assay, inhibitor; 1 µM).
`Cc1cccc(O[C@H]2CCC[C@@H](C(C)CNCc3ccncc3)C2)c1` (relative stereo) has an inhibition of -11% (enzyme activity, inhibitor; 10 µM).
For `Nc1ncc(-c2cc(-c3cnn(CC(F)(F)F)c3)ncc2F)nc1C(=O)NC1CNCC(F)C1` (stereo not shown), the remaining activity was 73.8% (enzyme activity; 1 µM; relative to: DMSO control).
`COc1c(Cl)cccc1Nc1c(-c2ccncc2C#C[C@@]2(C)CCCN2C(=O)/C=C/CN(C)C)[nH]c2c1C(=O)NCC2` has a remaining binding of 88% (cell-free assay, competition with immobilised ligand; 3 µM).
The remaining activity of `O=c1c(-c2ccc(Cl)c(CN3CCOCC3)c2)coc2cc(O)ccc12` is reported as 71% (enzyme activity, inhibitor; 1 µM).

Some of these lines once more:
For `Cc1ccc(-c2c(/C=C(\C#N)C(=O)NC(C)C)n(CCCO)c3ncnc(N)c23)cc1`, the remaining binding was 100% (cell-free assay, competition with immobilised ligand; 1 µM).
With `CNC1C[S+]2CC[S+]3CC[S+](C1)[Ru-4]321([N]=C=S)[n]2c3ccc(OC)cc3c3c4c(c5cc(F)c[n+]1c5c32)C(=O)NC4=O` (stereo not shown) the remaining binding was 99% (KinomeScan; 0.1 µM; relative to: untreated).
For `COc1c(OCCCN2CCOCC2)ccc2c1N=C(NC(=O)c1cnc(N)nc1)N1CCN=C21`, the remaining activity was 112% (kinase activity, inhibitor; 1 µM; relative to: untreated control).
For `CN1CC[C@@H](COc2cnc(C#N)cc2-c2ccn3nc(NC(=O)C4CC4)cc3c2)C1`, the inhibition was -11% (enzyme activity, inhibitor; 1 µM).
